Assay results collected from several papers.
Every numbered part comes from another study and shows a few of its results, in no order.

Series 1
Target: RNA binding protein fox-1 homolog 2, RRM domain, GST-SBP tag (RBFOX2, Homo sapiens, UniProt O43251-10, residues 100-194)
Method: RNA Bind-n-Seq
Molecule type: RNA
Matrix: in vitro
Tested at: 365 nM
Setting: natural RNA segment, single round, ends assumed
Reference: no-protein control
Reading: higher = stronger binding
Residues (chain): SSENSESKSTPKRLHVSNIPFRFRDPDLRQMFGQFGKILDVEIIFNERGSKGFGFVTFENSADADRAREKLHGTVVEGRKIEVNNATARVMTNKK
| Sequence | RBNS enrichment (R) |
| --- | --- |
| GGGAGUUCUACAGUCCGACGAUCGCCUUUUCAGCAGCGAUGGUCUCAGUGUGCUUGGGGCAGGAGUACAUAGUUUCUAUGAGCGAUAUAAAGAGUUCCUGUUUCCCUUCACUGGGCCUAAGCCUUUCUGCAUUUGGAAUUCUCGGGUGCCAA | 0.475 |
| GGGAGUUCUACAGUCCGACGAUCGGAAGAAGCGUGAAACUUUUCCCAGGAGAGCGAGGAGCACAGCGUCUUCGUGCCUGGCUCAUGGUAGAGCACAGUCAUGCACUGACCAAUGGAGGCAGCGUGUACACAUCUGGAAUUCUCGGGUGCCAA | 0.323 |
| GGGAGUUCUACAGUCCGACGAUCGUCAGAAGAGCCCUCCUGGUUUUUUAGCGAUUUGAACCCACUAGACAAUGUGUGCACAUAGGGAAUGUCCUUUAAGAAUCAUGGAUCUCUUGUAGGCUCUCUGUGUUCCAUGGAAUUCUCGGGUGCCAA | 0.651 |
| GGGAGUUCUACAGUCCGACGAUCGCCUGCAUGACCAGCUGGCUUCAGUGAUUUCUCCGUUUCCCUCUUUAGUUUCUAGGAAGCCACUGUGCUGUGCUAAGAAGCAGUUGGUCAGGAGGGCUCAGCCCAGGAGCUGGAAUUCUCGGGUGCCAA | 0.509 |
| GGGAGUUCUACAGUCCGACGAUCUUCACCUUUAGGGAUCUCAGCACAAUUAGAAUCGUAAAGUGAAUUCUAUCUAUUUAAUUGGAUAUUGGACUCUGCUCAUAUAAGCUACAGACAAAAGCCAAAAGACUCUCUGGAAUUCUCGGGUGCCAA | 0.339 |
| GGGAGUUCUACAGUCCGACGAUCAGUUUGUUAUUUCUCAAGUAUACAGCACCGAGGUCAGUCAGUUGUCACUCCCUGAUGACGUGUAGCUGCCCGCUCACUCCAUGUGAAGAAGAGCUCCAGCAGGCUACACAUGGAAUUCUCGGGUGCCAA | 0.273 |
| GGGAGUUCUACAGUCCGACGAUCAAUAUCUUUUCCUAAAGAAGAUAAACCUAAGACUCAUUCCAGGUAGCUCAGUGCCAACUAAAACAAAGCACAAAGUUCUCAGAGCUCUUGAGGAAAUGGUUGUCUCCCUGUGGAAUUCUCGGGUGCCAA | 0.249 |
| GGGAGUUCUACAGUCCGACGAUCGUGGUAAGGAAAGAAACAGGAGGUGCUAGAGGAACCAAGAGUUCUGGUCAUUAACUCAGUCAUGCCGAGCACCAGGGCGCUGGUUCUGAAACGGUUAAGAGAAAGGCUCUUGGAAUUCUCGGGUGCCAA | 0.973 |
| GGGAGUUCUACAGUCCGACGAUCAUUAAUGGUAUUGAAGUGUGUUAGUAGUCUGGCCGUGUGCCCAAACUUAUGUUUCGCAGCAAAAGUGGAAACCUGUCUGUAAAGCAAGUGUAACGAUGAUUUCCUGUAUCUGGAAUUCUCGGGUGCCAA | 0.826 |

Series 2
Target: PABPC1L2, full length, GST fusion (mouse, UniProt A0ABA7IW68)
Method: RNAcompete
Molecule type: RNA
Matrix: in vitro
Tested at: 20 nM
Setting: 7-mer, probes averaged, single round
Reference: mean of 7-mers
Reading: higher = stronger binding
Construct (chain): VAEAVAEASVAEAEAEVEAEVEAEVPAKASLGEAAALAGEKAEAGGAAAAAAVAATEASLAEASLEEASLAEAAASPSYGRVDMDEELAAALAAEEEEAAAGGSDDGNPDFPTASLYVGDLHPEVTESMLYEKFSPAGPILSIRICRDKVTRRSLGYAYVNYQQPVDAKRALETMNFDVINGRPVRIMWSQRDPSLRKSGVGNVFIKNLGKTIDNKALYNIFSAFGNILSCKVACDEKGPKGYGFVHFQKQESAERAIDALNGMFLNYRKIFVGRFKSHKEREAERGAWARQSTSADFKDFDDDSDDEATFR
| Sequence | 7-mer Z-score |
| --- | --- |
| CGACGUG | -0.0736 |
| AAAGCGU | 0.78 |
| CGCACGC | -0.19 |
| UGUAGAG | -0.153 |
| AUCCCGA | -0.119 |
| GUCGGUG | -0.0681 |
| UGACCCU | -0.197 |
| CACGGCU | -0.226 |
| GAUGGGA | 0.0569 |
| UUUACGA | 0.0877 |
| CGCCUAA | -0.374 |
| CGUCAAG | -0.32 |
| GGUAUAC | -0.00652 |
| AUCGGAU | -0.0699 |
| UCUAGCC | -0.253 |
| UCGCUGA | -0.179 |
| AGGGAUU | 0.0932 |
| UUGACAU | -0.184 |
| AAUGUGA | 0.193 |

Series 3
Target: RING finger protein unkempt homolog, zinc fingers 1-6, GST-SBP tag (UNK, Homo sapiens, UniProt Q9C0B0, residues 30-357)
Sequence of UniProt Q9C0B0 (30-357, looked up): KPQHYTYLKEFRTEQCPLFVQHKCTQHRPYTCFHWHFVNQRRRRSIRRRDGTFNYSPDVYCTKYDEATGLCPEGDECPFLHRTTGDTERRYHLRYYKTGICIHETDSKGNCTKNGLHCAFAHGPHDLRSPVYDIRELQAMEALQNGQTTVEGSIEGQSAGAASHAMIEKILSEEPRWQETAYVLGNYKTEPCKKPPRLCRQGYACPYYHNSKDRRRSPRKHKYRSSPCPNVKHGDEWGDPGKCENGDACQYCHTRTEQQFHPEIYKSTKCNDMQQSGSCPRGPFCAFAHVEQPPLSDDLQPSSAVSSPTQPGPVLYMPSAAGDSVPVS
Method: RNA Bind-n-Seq
Molecule type: RNA
Matrix: in vitro
Tested at: not given
Setting: RNA with constant flanks, ends assumed
Reference: input RNA pool
Reading: higher = stronger binding
| Sequence | bound/input enrichment |
| --- | --- |
| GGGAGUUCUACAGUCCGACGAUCGAUAAUCCUGUUUAAACUGGUGCUGUGUACAUGGGAUGUACUGAUACAGAACUUCUCUUCCCGGGAAAGCUAAUCAUUUGUCAAUGAUUUAAAAAUUAUUGUCACUACUGUUGAUUACUGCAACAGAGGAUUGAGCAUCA | 0.2 ratio |
| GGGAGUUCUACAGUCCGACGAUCCUCCUAAAAACUGUACCAAUUAUUCAGAAUCAGAUGGAUGCACUUCUUGAUUUUAAUGUUAACCGCAAUGAACUUACAAAUGGGGUAAUAAAUGCUGCCUUCAUGCUCCUGUUCAAAGAUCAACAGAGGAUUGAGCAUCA | 0.391 ratio |
| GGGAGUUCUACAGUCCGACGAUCACAGAUGAAGCUGACCUGGUUCUUGCAAAAGAAGCUAACGUGAAGUGUCCACAGAUUGUGACCGCAUUUUAUGAAGAGAGACUGACGUGGCACGCAUAUCCAGAGGAUGCGGAAAACAAACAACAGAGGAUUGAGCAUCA | 0.207 ratio |
| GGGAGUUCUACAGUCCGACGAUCAUUUUGUGCCAGUCACUCCUAGAAAAUCUAGACAAGCUUCCUGGAGAUUCACGAACAAGAACCGGAUUCAUGACCUUUGAUAGCACUAUUCAUUUCUACAAUUUACAAGAAGGAUUAUCACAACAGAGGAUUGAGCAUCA | 2.84 ratio |
| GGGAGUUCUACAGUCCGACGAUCGACCCCAUGCUGCUGCAGUUUUUCAAGUCUCAAGGUUAUAGGGACGGCCCCGGUAAUCCUCUCCGGCAUAAUUACGAAGGUACUUUAAGAGAUCUUCUACAAUUCUUCAAGCCAAGACAACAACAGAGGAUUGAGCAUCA | 0.411 ratio |
| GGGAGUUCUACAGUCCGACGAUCGUGUGCUCUGAGGGAGGGUCCGAGCCAGCCGCUGUUUUGCCGGAGGAGCCCCUCAGGCCGCCGUAAGCAUUAAUAAUGUCUUUCAUCUUUGAGUGGAUCUACAAUGGCUUCAGCAGUGUGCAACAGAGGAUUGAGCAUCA | 0.159 ratio |
| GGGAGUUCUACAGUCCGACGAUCGGGUGUUUGUGACCACUGCUUUCAGAGAUUCUUACCAUGUAUUCUGUUUUACAAUGUUUUCACCGACUGUUAUGCCAGAAGUUUCCGAUGAUCAAUGUAAUAACCUGUUUUAACUGCCUACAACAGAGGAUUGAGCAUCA | 0.152 ratio |
| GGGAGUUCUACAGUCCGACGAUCCGGCCGAGUUCAGUGUCCCUUGUUCAGGGCUCUUGAUAAUGUUUGACCCAGUGGCAACACCCGCCGACGACCUGAUUUUAAAGCUGACCUCAGCCUCUGCAUCUUCUCUCGAGUAGUCCCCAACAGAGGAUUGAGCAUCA | 0.277 ratio |
| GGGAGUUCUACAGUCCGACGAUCACCACGCAUCUGUUUUGUCCCACAAUGCGCUUUUCUCUCCCAAAUCCCGAUUUCUGCUGUCACCGCCUCUAUUCAAUUUUUAUUUAUUGUCUGCCCUCCACUUAUACAAUCGUAGAGAGCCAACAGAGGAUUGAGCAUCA | 1.05 ratio |
| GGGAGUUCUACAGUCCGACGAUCGUGGCUGAUAUCUCUGUUGCUAAAAUAGAUCCUUUAGCACCUUUGGAUAAAGUCUGCCUUCCCGGUUGUGGCAUUUCAACCGGUUAUGGUGCUGCUGUGAACACUGCCAAGUUGGAGCCUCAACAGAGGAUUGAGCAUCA | 0.34 ratio |
| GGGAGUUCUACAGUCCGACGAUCGUUGCCUACAUGUCCCUGGCUGUUGAGGCGCUGCUUCAGCCUGCACCCCUCCCUUGUCUCACCGAUGCUCCUUUUGACCUUUUCAAAUAAAUAUGGAUGGCGAGCUCCUAGGCCUCUGGCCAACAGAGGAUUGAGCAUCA | 0.292 ratio |

Series 4
Target: Histone acetyltransferase KAT6A, both winged helices, GST fusion (KAT6A, Homo sapiens, UniProt Q92794, residues 1-181)
Method: protein binding microarray
Molecule type: double-stranded DNA, one strand shown
Matrix: in vitro
Tested at: not given
Setting: 8-mer, flanks averaged, mean of 2 arrays, mostly near background
Reference: not given
Reading: higher = stronger binding
Residues (chain): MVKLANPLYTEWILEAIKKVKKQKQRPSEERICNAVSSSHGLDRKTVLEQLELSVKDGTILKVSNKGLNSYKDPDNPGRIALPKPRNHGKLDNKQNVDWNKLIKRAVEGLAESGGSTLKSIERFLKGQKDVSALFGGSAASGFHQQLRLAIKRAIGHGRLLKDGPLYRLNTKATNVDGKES
| Sequence | E-score |
| --- | --- |
| TTCCTCAA | -0.0308 |
| AGGGATCA | -0.258 |
| ACAGTAGA | -0.111 |
| ACCGCGGG | 0.371 |
| CATTAAGC | -0.0418 |
| CCGCTTAA | 0.202 |
| AATCCAGA | -0.144 |
| AACTTATG | -0.187 |
| CCTGGTCC | -0.197 |
| CATAGGAA | -0.133 |
| GAGGGGCA | -0.189 |
| ACGGACAG | 0.182 |
| TAAGTCGA | -0.14 |
| AGCAACAA | -0.103 |
| AGAATCCA | -0.186 |
| GCTCACAC | -0.0489 |
| AGGGTTCC | -0.0845 |
| GCCAACTA | -0.0435 |
| AGCTTCAA | -0.202 |
| CACATCCC | -0.0337 |
| GCAGAACA | 0.00543 |
| ACCTCCGT | -0.00241 |
| AGCATAGA | -0.0337 |
| AGGCCGCC | 0.183 |
| AACTTCTA | -0.202 |

Excerpt of the above (series 4):
| Sequence | E-score |
| --- | --- |
| CCTGGTCC | -0.197 |
| CATAGGAA | -0.133 |
| GAGGGGCA | -0.189 |
| ACGGACAG | 0.182 |
| TAAGTCGA | -0.14 |
| AGCAACAA | -0.103 |
| AGAATCCA | -0.186 |
| GCTCACAC | -0.0489 |
| AGGGTTCC | -0.0845 |
